Assay results pooled from the literature.
± gives the spread as reported.

| Compound | target | test | test system | conditions | scale | endpoint | value |
| --- | --- | --- | --- | --- | --- | --- | --- |
| Cc1ccc(C)c2sc(NC(=O)C3CCN(S(=O)(=O)c4ccc(F)cc4)CC3)nc12 | N-acyl-phosphatidylethanolamine-hydrolyzing phospholipase D (Napepld, Mus musculus, UniProt Q8BH82) | activator, LC-MS/MS | – | 10 or 20 µM, 90 min, with: NOPE substrate | – | OEA/NOPE ratio | increased |
| CC1=C(O)C(=O)C=C2C1=CC=C1[C@@]2(C)CC[C@@]2(C)[C@@H]3C[C@](C)(C(=O)NCCOCCOCCOCCOCC(=O)N[C@H](C(=O)N4C[C@H](O)C[C@H]4C(=O)N[C@@H](C)c4ccc(-c5scnc5C)cc4)C(C)(C)C)CC[C@]3(C)CC[C@]12C | Nuclear receptor subfamily 4 group A member 1 (Nr4a1, Mus musculus, UniProt P12813) | degrader, immunoblotting | SM1 mouse melanoma | concentration not given, 16 h | – | protein level | decreased |
| COc1ccc(-c2cc(C(F)(F)F)nc(NCc3ccc(Cl)cc3)n2)cc1OC | Glucagon-like peptide 1 receptor (GLP1R, Homo sapiens, UniProt P43220) | efficacy cooperativity, allosteric modulator | HEK-293T overexpressing GLP1R | with: GLP-1 | – | cooperativity factor beta | 2 |
| CCCN1C(=O)CCc2cc(NS(=O)(=O)Cc3ccc(C)cc3)ccc21 | Abscisic acid receptor PYR1, with HAB1 (PYR1, Arabidopsis thaliana, UniProt O49686) | PYR1-HAB1 interaction, agonist, AlphaScreen | – | – | reference: ABA | potency relative to ABA | 8.7 fold |
| CC(Oc1cc(-c2ccccc2)nc2cccnc12)C(=O)N(C)c1ccccc1 (stereo not shown) | Translocator protein (Tspo, Rattus norvegicus, UniProt P16257) | binding | rat brain homogenate | pKi minus clogD | – | lipophilic efficiency | 4.6 ± 0.1 |
| O=C(O)/C=C/c1ccccc1 | PAL1 (Petroselinum crispum, UniProt P24481, Y110F) | isothermal titration calorimetry | – | concentration not given | reference: wild type minus Y110F | ΔΔG binding | -0.6 kcal/mol |
| CC(C)C[C@H](NC(=O)[C@H](Cc1ccc(O)cc1)NC(=O)[C@@H](CCCNC(=N)N)NC(=O)[C@@H](CO)NC(=O)[C@H](Cc1ccccc1)NC(=O)[C@H](CC1CCCCC1)NC(=O)[C@H](CC(=O)O)NC(=O)CCC(C(=O)O)N1CCCN2CCN(CCCN(CC(=O)O)CC2)CC1)C(=O)N[C@@H](Cc1c[nH]c2ccccc12)C(=O)N[C@@H](CO)C(=O)O (stereo partly shown) | Urokinase plasminogen activator surface receptor (Homo sapiens, UniProt Q03405) | binding, SPR | – | – | – | koff | 0.0108 s⁻¹ |
| CCOC(=O)c1cc2c(N)c(C(=O)OC)sc2nc1C | Urea transporter 1 (Slc14a1, Rattus norvegicus, UniProt P97689) | urea permeability, osmotic lysis | rat erythrocytes | – | – | maximal inhibition | > 80% |
| CC(C)C[C@H](NC(=O)[C@H](N)Cc1ccc(O)cc1)C(=O)N(C)[C@@H](Cc1ccccc1)C(=O)N[C@@H](CCC(N)=O)C(=O)N1CCC[C@H]1C(=O)N[C@@H](CCC(N)=O)C(=O)N[C@@H](CCCNC(=N)N)C(=O)N[C@@H](Cc1ccccc1)C(N)=O | Neuropeptide FF receptor 2 (Homo sapiens, UniProt Q9Y5X5) | agonist | – | 10 µM | reference: maximal activation | stimulation | 231% |
| CCCN(CC(=O)N(CCC)CC(=O)N(CCC)CC(=O)N(CCC)CC(=O)N(CC(=O)N(CCC)CC(=O)N(CCC)CC(=O)N(CCC)CC(=O)N(CCC)CC(=O)N(CC(N)=O)Cc1cn(CCCNC(=O)CCCOc2cccc(-c3nc4ccc(-c5nc6ccc(N7CCN(C)CC7)cc6[nH]5)cc4[nH]3)c2)nn1)Cc1cn(CCCNC(=O)CCCOc2cccc(-c3nc4ccc(-c5nc6ccc(N7CCN(C)CC7)cc6[nH]5)cc4[nH]3)c2)nn1)C(=O)CNCc1cn(CCCNC(=O)CCCOc2cccc(-c3nc4ccc(-c5nc6ccc(N7CCN(C)CC7)cc6[nH]5)cc4[nH]3)c2)nn1 | MBNL1–r(CUG)109 complex | MBNL1 displacement | 0.65 pmol r(CUG)109 | unit not given, with: yeast tRNA 3.7 µM | reference: monomer 2 IC50 per module | multivalent effect | 38 |
| CC[C@H](C)[C@H](NC(=O)[C@H](CC(=O)O)NC(=O)[C@H](CO)NC(C)=O)C(=O)N[C@@H](CSCc1ccccc1)C(=O)N[C@@H](CC(=O)O)C(=O)N[C@@H](Cc1ccccc1C)C(=O)N[C@H](C(=O)N[C@@H](CC(C)C)C(=O)N[C@@H](CCCCN)C(=O)N[C@@H](CC(N)=O)C(=O)N[C@@H](Cc1ccc(O)cc1)C(=O)N1CCC[C@H]1C(N)=O)[C@@H](C)CC | Histone lysine acetyltransferase CREBBP, KIX domain (Crebbp, Mus musculus, UniProt P45481) | KIX–MLL binding, inhibitor, fluorescence polarization | – | – | reference: wild-type MLL 847–858 | fold affinity enhancement | > 50 fold |
| COc1cccc(C(=O)N[C@H]2[C@@H](O)[C@@H](CO)O[C@@H](S[C@@H]3O[C@H](CO)[C@H](O)[C@H](NC(=O)c4cccc(OC)c4)[C@H]3OS(=O)(=O)O)[C@@H]2O)c1 | Galectin-3 (LGALS3, Homo sapiens, UniProt P17931) | ITC | – | Kd fixed from FP | – | ΔH | -12.72 ± 0.0956 kcal/mol |
| CN(C1COC1)C(C)(C)/C=C(\C#N)C(=O)N1CCC[C@H]1Cn1nc(-c2ccc(Oc3ccccc3)cc2F)c2c(N)ncnc21 | Tyrosine-protein kinase (Rattus norvegicus, UniProt Q5S255) | – | rat, PBMC | oral, 40 mg/kg, 14 (unit not given) | – | receptor occupancy | 57 ± 9% |
| O=C(O)[C@H]1O[C@@H](O[C@H]2[C@H](O)[C@H](O)[C@H](O[C@H]3[C@H](O)[C@H](O)[C@H](O)O[C@@H]3C(=O)O)O[C@H]2C(=O)O)[C@@H](O)[C@@H](O)[C@@H]1O[C@@H]1O[C@@H](C(=O)O)[C@@H](O)[C@H](O)[C@@H]1O | Beta-lactoglobulin (LGB, Bos taurus, UniProt P02754, A134V/G80D) | isothermal titration calorimetry | – | concentration not given, pH 4.00, 37 °C, 50 mM KH2PO4 | ligand per protein | binding stoichiometry | 4 |
| O=C1Nc2c(ccc(Cl)c2Cl)/C1=N/O | Calm1/Kcnn2, SK2-a isoform (Rattus norvegicus, UniProt P0DP29+P70604, A477I) | channel current, potentiator, inside-out patch clamp | – | with: 200 nM Ca2+ | reference: mutant over wild type | EC50 shift | 5 fold |
| CCOCCNC(=O)N1CCC[C@H](c2n[nH]c(-c3ccccc3)n2)C1 | Aromatase (CYP19A1, Homo sapiens, UniProt P11511) | enzyme activity, inhibitor, MFC to HFC conversion | – | 10 µM, with: MFC substrate | – | apparent Km | 45.4 µM |
| NCCCC[C@H](NC(=O)[C@H](C/C=C\C[C@H](NC(=O)[C@@H]1CCCN1)C(=O)N[C@@H](CCCCN)C(=O)NCCCN)NC(=O)[C@@H]1CCCN1)C(=O)NCCCN | (CUG)10 RNA | SPR | – | – | – | residence time | 20 s |
| CC(C)[C@H]1CC[C@@]2(CO2)[C@H]2C(=O)CC(C(=O)O)=C[C@H]12 | Glyceraldehyde-3-phosphate dehydrogenase (GAPDH, Homo sapiens, UniProt P04406) | covalent inhibitor | – | – | – | KI(inact) | 150 ± 30 µM |
| CC(C)C[C@H](NC(=O)CN)C(=O)N[C@@H](CO)C(=O)N[C@@H](Cc1ccccc1)C(=O)N[C@@H](C)C(=O)N[C@@H](Cc1ccccc1)C(=O)N1CCC[C@H]1C(=O)N[C@@H](C)C(=O)N[C@@H](CCCCN)C(=O)N[C@@H](CC(=O)O)C(=O)N[C@@H](C)C(=O)N[C@@H](CCC(=O)O)C(=O)N[C@@H](CC(N)=O)C(=O)N[C@@H](C)C(=O)N[C@@H](CO)C(=O)N[C@@H](CO)C(=O)N1CCC[C@H]1C(=O)N[C@H](C(=O)O)C(C)C | Peptide cyclase 1 (Gypsophila vaccaria, UniProt R4P353, S562A) | ITC | – | pH 8.0, 25 °C | – | ΔG | -9.01 kcal/mol |
| CNc1ccccc1C(=O)O[C@H]1C[C@H](n2cnc3c(N)ncnc32)O[C@@H]1COP(=O)(O)OP(=O)(O)O | Unconventional myosin-Va (Gallus gallus, UniProt Q02440, D297C/G292C/I296C/S293C/V295G) | stopped-flow FRET | – | 4 °C, with: MgCl2 10 mM | – | pocket reverse rate constant | 0.37 ± 0.03 s⁻¹ |
| CS(=O)(=O)CCC1NC(=O)C(Cc2ccco2)NC(=O)C(CC2CC2)NC(=O)C=CC(=O)NC(C(N)=O)CCNC1=O (stereo not shown) | Receptor tyrosine-protein kinase erbB-4 (ERBB4, Homo sapiens, UniProt Q15303) | DNA-templated library selection | – | one selection round | – | enrichment factor | 1 |
| COc1cccc(-c2nc(Nc3nc4ccccc4o3)ncc2C#N)c1 | Metabotropic glutamate receptor 5 (Grm5, Rattus norvegicus, UniProt P31424) | calcium mobilization, negative allosteric modulator | – | with: glutamate EC80 | reference: maximal glutamate response | maximal response | 2.4 ± 0.3% |
| CCC(=O)N(C)c1ccc(Cl)c(Cl)c1 | Aryl hydrocarbon receptor (AHR, Homo sapiens, UniProt P35869) | reporter gene, agonist | – | 0.32 µM | reference: vehicle | fold activation | 1.09 fold |
| COC(=O)c1ccc(CNC(=O)[C@@H]2C[C@@H](O)CN2C(C)=O)cc1 | von Hippel-Lindau disease tumor suppressor, with Elongin B/C (VHL, Homo sapiens, UniProt P40337) | isothermal titration calorimetry | – | concentration not given, 25 °C | – | binding enthalpy (ΔH) | -4.35 ± 0.02 kcal/mol |
| N[C@H]1CCCCNC(=O)[C@H](Cc2ccccc2)NC(=O)[C@@H]2CCCN2C(=O)[C@@H](N)CCCCNC(=O)[C@H](Cc2ccccc2)NC(=O)[C@@H]2CCCN2C1=O | E3 ubiquitin-protein ligase XIAP, linker-BIR2-BIR3 (XIAP, Homo sapiens, UniProt P98170) | antagonist | MDA-MB-231 cell lysate | 100000 nM, with: 50 nM XIAP linker-BIR2-BIR3 protein | – | caspase-3/7 activity | no effect |

A few entries again:
| Compound | target | test | test system | conditions | scale | endpoint | value |
| --- | --- | --- | --- | --- | --- | --- | --- |
| COc1cccc(C(=O)N[C@H]2[C@@H](O)[C@@H](CO)O[C@@H](S[C@@H]3O[C@H](CO)[C@H](O)[C@H](NC(=O)c4cccc(OC)c4)[C@H]3OS(=O)(=O)O)[C@@H]2O)c1 | Galectin-3 (LGALS3, Homo sapiens, UniProt P17931) | ITC | – | Kd fixed from FP | – | ΔH | -12.72 ± 0.0956 kcal/mol |
| CCCN1C(=O)CCc2cc(NS(=O)(=O)Cc3ccc(C)cc3)ccc21 | Abscisic acid receptor PYR1, with HAB1 (PYR1, Arabidopsis thaliana, UniProt O49686) | PYR1-HAB1 interaction, agonist, AlphaScreen | – | – | reference: ABA | potency relative to ABA | 8.7 fold |
| CC(C)C[C@H](NC(=O)[C@H](N)Cc1ccc(O)cc1)C(=O)N(C)[C@@H](Cc1ccccc1)C(=O)N[C@@H](CCC(N)=O)C(=O)N1CCC[C@H]1C(=O)N[C@@H](CCC(N)=O)C(=O)N[C@@H](CCCNC(=N)N)C(=O)N[C@@H](Cc1ccccc1)C(N)=O | Neuropeptide FF receptor 2 (Homo sapiens, UniProt Q9Y5X5) | agonist | – | 10 µM | reference: maximal activation | stimulation | 231% |
| CC1=C(O)C(=O)C=C2C1=CC=C1[C@@]2(C)CC[C@@]2(C)[C@@H]3C[C@](C)(C(=O)NCCOCCOCCOCCOCC(=O)N[C@H](C(=O)N4C[C@H](O)C[C@H]4C(=O)N[C@@H](C)c4ccc(-c5scnc5C)cc4)C(C)(C)C)CC[C@]3(C)CC[C@]12C | Nuclear receptor subfamily 4 group A member 1 (Nr4a1, Mus musculus, UniProt P12813) | degrader, immunoblotting | SM1 mouse melanoma | concentration not given, 16 h | – | protein level | decreased |
